# Results gathered from unrelated publications.
# Each numbered part is a random draw from the data of one study; scales do not carry over between parts.

# Series 1 — technique: RNA Bind-n-Seq; form: RNA; matrix: in vitro; concentration: 365 nM; reference: no-protein control; reading: higher = stronger binding
# Target: RNA binding protein fox-1 homolog 2, RRM domain, GST-SBP tag (RBFOX2, Homo sapiens, UniProt O43251-10, residues 100-194)
# Setting: natural RNA segment, single round, ends assumed
# Constant ends, left off below: GGGAGUUCUACAGUCCGACGAUC … UGGAAUUCUCGGGUGCCAA
# Target sequence (chain): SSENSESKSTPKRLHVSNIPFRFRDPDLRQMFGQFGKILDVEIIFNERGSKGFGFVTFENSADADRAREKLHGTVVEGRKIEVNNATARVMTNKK
Strand,RBNS enrichment (R)
UCUGAGUAAAGUGUCAGUUGCACAGCUCCGUCCUCUUCUGUCUUGCACUGUGGGUGGCACUAUUUAUUCCUGUGCGUCAUCUGGAAGCCUCACGGAUACAUCCAGCUAUG,0.485
UCAAGAGUGAGGCUAAACUGCGACCCCAACAUCACUUCCUUCAUGGAAAGGUGUUGGCGCUGAUGUAGCUCAUGGAAGGAUCAGACUGGGAACCACAGAGGAAGGAUGAG,0.344
GGCUGUCUCCCUCCAGAGCCUCCCUCCGGACAAUGAGUCCCCCCUCUUGUCUCCCACCCUGAGAUUGGGCAUGGGGUGCGGUGUGGGGGGCAUGUGCUGCCUGUUGUUAU,1.4
CUCUCCCCCUGCUGUCUGCAGCCCCUCCCCGGGGAGUUGGUGCUUUCUUUUCCUUUUUUUUUUUUUUCCAGGGGGAGGGAGGAGAGGAAGGAGGGGGAUCAGAGCUGUCC,0.905
GGAGAGUUUUGAAUGUGCAUAUGCUGACGCCUGAGAACAGACCCAGGUACCCGUGGCUGAGCUGAGCUUCCUCUGCUUUCCCUAGGCCUGGCCUCUGCAGGGAACUGCAG,10.6
UCCCUGCUUGGAGCUGCAGAAGGGUUGCCUUCUGUAGGUCGGAGGAAUGGAGGCUUACUAACCAGGUAAGCCUUCUAUGCAUCCACACCAAAAUCCUGCAGAAUGUAAGU,0.655
UGCUGCGAUGGCCUCAAGGCCUCUCCAGUCCCCUGCUGCACCAUGCCACUCAGAGCCCCUGAGUGAGCCCCCUGGAAUUGUCUGCACCCCCCAAGCCCCAACAGGAAGAA,0.723
AUGCAGAGGACUUGCUCAGACUCCUACAGGCUCCUGAUCACUGCAAGCCCCCAGUACCGGUCAGUUGAUUCUGUGGGCUGUAAACUGUGAAGUAUGGGUUCUCUCAGAGG,0.282
UUUAGUGAUAUUUAGACCCCUCUCAGUUAAGAAAUGCUUAGAUUAAAAAAAAAAAAUUACGUAGGAUUAAUACAGAAAUUUAAUCAUGUCUGAUUAAUUGCUCUAUUAAA,0.959
CCCGACAUUGAUGUUUCUUCCUGUUGCAAGGUGGGGCUUUAAACUUUCAAGGUACAAAAGUAUGUCUUUUAAAAUGGAAGUAACGUUUGUUUAGCUAGUGAAUGUGACAA,0.552
CUGCUCUGCUGCCUCUUUGCCACUUCCUGGAAGCCUUCCUCCCUGGAAGAACAGCCUUUUGCAUCUGAGGCGACCAUUUUUACACCAUGCAGAUCUUCGUGGUUAUCAUC,0.419
GCUGCUAAAUGCUAUCUUUAGGUGUGUGAAAGUUCUUUGAUAUGUUAUUGUCCUUUUACAUCUUGUUAAAUAGCCAUUGCUUUUGAGAAUCAGAUAGUGUGUUGUUUAGG,5.05

# Series 2 — technique: protein-binding microarray; form: double-stranded DNA, one strand shown; matrix: in vitro; concentration: 250 nM; setting: 60-bp whole probe; with: salmon DNA 0.4 mg/ml; reference: random background probes; reading: higher = stronger binding; constant ends, left off below: GCCTAGCAC … GTCTTGATTCGCTTGACGCTGCTG
# Target: Interferon regulatory factor 7, full length, phosphomimetic (IRF7, Homo sapiens, UniProt Q92985, residues 1-503, S101K/S471D/S472D/S475D/S476D/S477D/S483D/S484D/S487D)
# Sequence of UniProt Q92985 (whole entry, unmodified, looked up): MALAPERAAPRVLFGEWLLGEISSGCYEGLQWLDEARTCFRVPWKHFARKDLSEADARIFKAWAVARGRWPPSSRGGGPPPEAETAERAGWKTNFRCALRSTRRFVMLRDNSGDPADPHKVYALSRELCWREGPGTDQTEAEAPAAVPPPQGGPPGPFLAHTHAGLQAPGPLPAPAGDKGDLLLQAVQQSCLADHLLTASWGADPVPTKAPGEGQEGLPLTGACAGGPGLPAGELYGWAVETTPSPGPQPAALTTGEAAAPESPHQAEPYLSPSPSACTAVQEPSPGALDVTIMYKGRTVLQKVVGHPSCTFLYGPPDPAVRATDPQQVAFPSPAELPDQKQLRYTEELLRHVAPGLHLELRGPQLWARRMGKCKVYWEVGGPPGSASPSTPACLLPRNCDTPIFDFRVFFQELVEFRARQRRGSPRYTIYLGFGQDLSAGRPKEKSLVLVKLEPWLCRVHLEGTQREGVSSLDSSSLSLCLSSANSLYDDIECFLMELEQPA
Strand,log fluorescence
TTAGATCTCAATTTCGATTAGTGCTAG,1.4 z-score
TCAATTGTGGATCTTGCACTGTGCTAG,0.0789 z-score
GACGGACTGCTTCTCCTGGCGTGCTAG,-0.116 z-score
GTAGGTATCCTTTTCCTTTAGTGCTAG,1.08 z-score
TTAGGTATCCTACTGCTATAGTGCTAG,0.213 z-score
GACGGTCTCCGACTGCTGACGTGCTAG,-0.479 z-score
GTAGATATCGGGTTTCGATTAGTGCTA,6.38 z-score
GCTTTTTCCCCCCTCACGCAGTGCTAG,2.49 z-score
TCAATTTTCAGTATTACACTGTGCTAG,0.552 z-score
AATTGTCTCTGTCCCTGTTTGTGCTAG,1.68 z-score
TTAGATATCGGGTATCGAGTAGTGCTA,0.427 z-score
GACGATTTCCGTTTCGAGACGTGCTAG,4.04 z-score
GACGGACTCGGGTTTCGGGACGTGCTA,4.07 z-score
CTCTTGATCCCGAACTGGCCGTGCTAG,0.433 z-score
TCATATTTTTTTCCAGAACTGTGCTAG,1.13 z-score
GACGGTTTCGGGTATCGGGATGTGCTA,7.78 z-score
ATAGGTTTCGGTATCGGTTAGTGCTAG,11.1 z-score
TTTGGTTTCCTACTGCTTTAGTGCTAG,1.97 z-score
TTAGGTTTCGACTATCGGGTAGTGCTA,5.22 z-score
TCACCTGTACATCTATGACTGTGCTAG,-0.0382 z-score
TTAGGACTGCTTATCGTTTAGTGCTAG,0.215 z-score
TCATACCTGAATATCTTACTGTGCTAG,0.359 z-score

# Series 3 — technique: RNA Bind-n-Seq; form: RNA; matrix: in vitro; concentration: 200 nM; setting: whole 134-nt RNA, ends assumed; with: 150 mM LiCl; reference: input library; reading: higher = stronger binding; library: 7-deaza-guanosine replaces G
# Target: Ras GTPase-activating protein-binding protein 1, full length (G3BP1, Homo sapiens, UniProt Q13283)
# Sequence of UniProt Q13283 (whole entry, looked up): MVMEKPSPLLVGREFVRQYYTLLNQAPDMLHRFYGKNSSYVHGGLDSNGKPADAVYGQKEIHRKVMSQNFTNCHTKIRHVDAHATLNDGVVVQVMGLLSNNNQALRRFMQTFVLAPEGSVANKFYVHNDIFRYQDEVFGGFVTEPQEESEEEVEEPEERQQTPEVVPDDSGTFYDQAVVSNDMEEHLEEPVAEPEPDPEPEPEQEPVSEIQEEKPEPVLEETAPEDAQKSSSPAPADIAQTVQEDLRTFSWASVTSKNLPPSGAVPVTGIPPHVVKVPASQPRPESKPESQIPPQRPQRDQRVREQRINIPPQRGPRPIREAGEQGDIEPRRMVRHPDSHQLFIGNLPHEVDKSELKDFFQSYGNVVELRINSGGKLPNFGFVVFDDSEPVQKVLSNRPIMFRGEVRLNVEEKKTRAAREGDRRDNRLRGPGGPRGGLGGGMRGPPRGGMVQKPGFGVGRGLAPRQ
# Constant ends, left off below: GGGAGUUCUACAGUCCGACGAUC … UGGAAUUCUCGGGUGUCAAGG
Strand,log2 enrichment
CUGUGCUACACAUCGUAUGUACCGAAUCGGGAAAAAAAGGGAAAAAAAGGGAAAAAAAGGGGAAAGUAUUAUGUUACGCCGUUCGGAUCU,0.26
GCAGGAAGUAAAAACAAAUGGAAAUGCUUCGGAUAGUGGCAGGGGUGGGGGUUGCUAAGGAGAGGGUGGGAUGGGAGUGGGUAAAGAGUU,-0.000313
CUGUGCUACACAUCGUAUGUACCGAAUCGGGGAAAGGGGAAAAAAAGGGGUUUUUUUGGGGAAAGUAUUAUGUUACGCCGUUCGGAUCUG,0.248
UAACUUUAGAGGAGGACCUGAUGGAUAUGGCAGUGGACGUGGAUUUGGGGAUGGCUAUAAUGGGUAUGGAGGAGGACCUGGAGGUGGCAA,-0.61
CACAGACAACACGCACCCACACAGACACAGAGGGAAUGGGUUGGGAUGGGGACAGGGUGCACAGCAGGGCGGGGUAGGACCCCAGCCCCU,-1.56
UACUCUCUCGGGGCUGGAAGCUUCCUGACUGAAGAUCUCUCUGCACUUGGGGUUCUUUCUAGAACAUUUUCUAGUCCCCCAACACCCUUU,0.0894
GCAGGAAGUAAAAACAAAUGGAAAUGCUUCGGAUAGUGGCAGGGGUGGGGGUUGCGAAGGAAAGGGUGGGAUGGGAGUGGGUAAAGAGUU,-0.32
ACCAUGCAGGUGGGCAUCUUUGGGAAGUGGGGCAAGUGGGGGAUAGGGAGGGGGGUAACACUUUGGGAACAGGUGGUCCCAGGUCGUUUC,0.515
GUCCUGUGCUACACAUCGUAUGUACCGAAUCGGGUUUUUUUGGGAAAAAAAGGGUGGGAAAGUAUUAUGUUACGCCGUUCGGAUCUGCAC,-1.91
UAACUUUAGAGGAGGAUCUGAUGGAUAUGGCAGUGGACGUGGAUUUGGGGAUGGCUAUAAUGGGUAUGGAGGAGGACCUGGAGGUGGUAA,0.198
UUCAGUAAAAUGGCAGAAGAGAAACUGACCCACAAAAUGGAAGCUAAUAAAGAGAACCGAGAGGCACAAAUGGCUGCCAAACUGGAACGU,0.339

# Series 4 — technique: protein binding microarray; form: double-stranded DNA, one strand shown; matrix: in vitro; concentration: not given; reference: not given; reading: higher = stronger binding
# Target: Histone acetyltransferase KAT6A, winged helix 2, GST fusion (KAT6A, Homo sapiens, UniProt Q92794, residues 85-181)
# Setting: 8-mer, flanks averaged, mean of 2 arrays, mostly near background
# Residues (chain): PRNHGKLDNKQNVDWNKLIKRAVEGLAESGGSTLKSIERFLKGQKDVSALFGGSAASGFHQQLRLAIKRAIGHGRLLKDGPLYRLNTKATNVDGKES
Strand,E-score
AACAGGGG,0.0778
ACACACCG,0.0354
CCAGTCCC,-0.073
CCTCTAAG,-0.0376
GAAATTAC,-0.0923
CTTCGATA,0.079
CCAATTGG,0.0695
ATGTGCTC,0.0742
ACTGGGCC,0.129
CTATAGAC,-0.189
GCCGCAGC,0.185
CAGGGACC,0.0178
CTGTTTCA,0.097
ACTCCGAC,-0.00099
CTGCCACA,0.0131
CGACAAAC,0.0563
CCAAACCG,0.133
CCGCTGAA,0.119
AATAATAT,0.128
TCCAGAGA,0.1
GAACTTAA,-0.0842
ACGCTACC,-0.154
CTGGGGTC,-0.0286
CGTGGAGA,0.0642
ATAAGCAA,0.00519

# Excerpt of the above (series 2):
Strand,log fluorescence
TTAGGTATCCTACTGCTATAGTGCTAG,0.213 z-score
TTAGGTTTCGACTATCGGGTAGTGCTA,5.22 z-score
GACGGACTCGGGTTTCGGGACGTGCTA,4.07 z-score
TTAGATCTCAATTTCGATTAGTGCTAG,1.4 z-score
GCTTTTTCCCCCCTCACGCAGTGCTAG,2.49 z-score
ATAGGTTTCGGTATCGGTTAGTGCTAG,11.1 z-score
TCATATTTTTTTCCAGAACTGTGCTAG,1.13 z-score
GACGGACTGCTTCTCCTGGCGTGCTAG,-0.116 z-score
TCATACCTGAATATCTTACTGTGCTAG,0.359 z-score
TCAATTGTGGATCTTGCACTGTGCTAG,0.0789 z-score
TTTGGTTTCCTACTGCTTTAGTGCTAG,1.97 z-score
GACGATTTCCGTTTCGAGACGTGCTAG,4.04 z-score
